Results pooled from the literature.
Every numbered part comes from another study and shows a few of its results, in no order. Changes are numbered by the printed parent chain.

Block 1 — method: RNA Bind-n-Seq; form: RNA; sample: in vitro; concentration: not given; relative to: input RNA pool; reading: higher = stronger binding
Target: RING finger protein unkempt homolog, zinc fingers 1-6, GST-SBP tag (UNK, Homo sapiens, UniProt Q9C0B0, residues 30-357)
Setting: RNA with constant flanks, human-mouse chimeric sites, ends assumed
Shared flanks, not repeated: GGGAGUUCUACAGUCCGACGAUC … CAACAGAGGAUUGAGCAUCA
Target sequence (chain): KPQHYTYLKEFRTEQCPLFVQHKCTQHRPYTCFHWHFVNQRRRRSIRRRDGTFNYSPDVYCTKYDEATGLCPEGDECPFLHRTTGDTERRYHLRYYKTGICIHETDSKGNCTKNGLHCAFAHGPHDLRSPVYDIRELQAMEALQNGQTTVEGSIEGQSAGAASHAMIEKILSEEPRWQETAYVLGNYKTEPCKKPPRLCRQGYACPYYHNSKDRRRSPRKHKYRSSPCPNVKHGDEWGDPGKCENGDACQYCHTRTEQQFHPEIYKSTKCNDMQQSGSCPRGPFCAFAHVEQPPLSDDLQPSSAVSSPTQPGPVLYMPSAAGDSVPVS
Sequence | bound/input enrichment [ratio]
AGGAGGAGGUUAAAGGGUGAGAGUGGGGUGGAAGACUGUGUCAUGGCUCUGGAGACACUGUUCAGUGUUCUGCUUUCUCUGUGCAGACUGAUGGCCCCUUACACGCCUUUUCUCACUGAG | 0.0774
AAUUUCCUGUCAUACUUUUUAGACAUUCACAUCAGACUUACAGAGCACCUGGCCACAUUCUAGGUUUGAAUUAUUUCUCAGCUAUGGAUAUGAUCAAAUGAGAACACUGGCAGCCAGAUG | 0.888
AAUUUCCUGUCAUACUUUGUAGCAAGACACAUCAGACUUACAGAGCACCUGGCCACAUUCUAGGUUUGUGUUAUUUCUCAGCUAUGGGGGUAUGAUUAUGAGAACACUGCUUAACUAAUG | 0.384
GUGACUGGUGUUAAGAUUUACCCUCAGCAAAGAAGUGCAGUAGUCACCAUAAUUCCAUCUGUGGUGAGUGCCAGUCAGAUUGUGGAGCUGGUCCCAGAACUCAGUUUAGACAUGGGAACU | 0.705
GUAAUGGACGUCAACACUGCUUUACAAGAGGUGCUGAAGACCGCCCUCAUCCACGAUGGCCUAGCACGUGGCAUACGCGAAGCUGCCAAAGCCUUAGACAAGCGCCAAGCCCAUCUUUGU | 0.109
AUGGAAAAGGAUUCUCUGCCCCGCUUUGUGCGCUCUGAAUUUUAUAAGGAGCUAAUCAAGUAGUAAUCUGGUCAGGCUUCCAAAAGUUGCCCUGUGAGUUGAGUUACAUCCUUUGUAGCA | 0.258
AAUUUCCUGUCAUACUUUUUAGACAUUCACAUCAGACUUACAGAGCACCUGGCCACAUUCUAGGUUUGUGUUAUUUCUAAGCCUUUUGGGUAUGAUUAUGAGAACACUGCUUAACUAAUG | 0.281
CUCGGCACCGGCACGCUUUACAUCGCGGAGAGCCGCCUGUCUUGGUUAGAUGGUUCGGGAUUAGGAUUCUCACUGGAAUACCCCACCAUUAGUUUACAUGCGGUGUCCAGGGACCGAAAC | 0.676

Block 2 — method: RNAcompete; form: RNA; sample: in vitro; concentration: 20 nM; setting: 7-mer, probes averaged, single round; relative to: mean of 7-mers; reading: higher = stronger binding
Target: PABPC1L2, full length, GST fusion (mouse, UniProt A0ABA7IW68)
Construct (chain): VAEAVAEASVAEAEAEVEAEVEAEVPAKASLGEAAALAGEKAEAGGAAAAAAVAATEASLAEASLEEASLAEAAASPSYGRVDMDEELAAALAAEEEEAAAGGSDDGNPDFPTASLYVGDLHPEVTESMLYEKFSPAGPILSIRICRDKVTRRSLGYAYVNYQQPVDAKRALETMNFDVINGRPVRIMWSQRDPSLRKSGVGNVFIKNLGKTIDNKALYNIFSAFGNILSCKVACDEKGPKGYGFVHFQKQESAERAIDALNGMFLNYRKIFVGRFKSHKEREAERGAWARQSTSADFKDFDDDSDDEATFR
Sequence | 7-mer Z-score
AUGUCAG | -0.0337
AUUGUGG | 0.167
CAACUUC | -0.211
GGCGCCA | -0.132
AAAACCG | 2.92
GUCUACG | -0.335
GUGGCAU | 0.225
GACGAUC | -0.162

Block 3 — method: DNA-protein interaction ELISA; form: double-stranded DNA, one strand shown; sample: in vitro, bacterial lysate; concentration: not given; setting: whole dsDNA probe, crude lysate protein; relative to: highest signal in screen; reading: higher = stronger binding
Target: Probable WRKY transcription factor 50, DNA-binding domain (WRKY50, Arabidopsis thaliana, UniProt Q8VWQ5, residues 99-173)
Chain of UniProt Q8VWQ5 (99-173, looked up): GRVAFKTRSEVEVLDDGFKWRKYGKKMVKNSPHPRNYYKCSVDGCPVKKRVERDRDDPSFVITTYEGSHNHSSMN
Sequence | relative absorbance
AAAAAACGTTGAACCTGGGCCTCAACAAAA | 34.9 % of maximum
AAAAAACCGTCTTATCTCTCGTCCCTAAAA | 38.6 % of maximum
AAAAAAACTCTCCGGGTACAATTGCAAAAA | 32.3 % of maximum
AAAAAATTCCCAGCGTATCCGACCCGAAAA | 24.9 % of maximum
AAAAAACCTCTTGTCTCTGCTCTCCCAAAA | 26 % of maximum
AAAAAATTGCACCTGATACTAGGGTTAAAA | 22.1 % of maximum
AAAAAATAATTACAAGTCGGCTCCACAAAA | 15.4 % of maximum
AAAAAACCCGTTCTACCTTATTCCTGAAAA | 21.1 % of maximum

Other studies, line by line
Parent: PafA, mature enzyme, eGFP fusion (Elizabethkingia meningoseptica, UniProt Q9KJX5); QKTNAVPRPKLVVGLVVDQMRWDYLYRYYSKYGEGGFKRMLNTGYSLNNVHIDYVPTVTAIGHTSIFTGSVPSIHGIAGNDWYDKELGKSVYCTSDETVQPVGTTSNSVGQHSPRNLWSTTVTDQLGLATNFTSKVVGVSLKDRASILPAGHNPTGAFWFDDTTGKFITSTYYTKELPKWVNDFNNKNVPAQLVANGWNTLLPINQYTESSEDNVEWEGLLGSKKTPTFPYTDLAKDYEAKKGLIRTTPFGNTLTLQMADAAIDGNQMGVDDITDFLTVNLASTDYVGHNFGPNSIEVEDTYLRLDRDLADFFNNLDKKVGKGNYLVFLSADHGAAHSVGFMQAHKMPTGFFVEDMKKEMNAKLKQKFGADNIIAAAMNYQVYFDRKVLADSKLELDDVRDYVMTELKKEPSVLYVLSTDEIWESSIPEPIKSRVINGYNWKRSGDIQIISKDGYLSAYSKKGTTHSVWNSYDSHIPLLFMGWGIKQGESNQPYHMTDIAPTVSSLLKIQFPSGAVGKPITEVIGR
Variant | target | test | test system | setting | how to read | endpoint | value
G292A | inorganic phosphate, free oxyanion | microfluidic competitive inhibition | in vitro, cell-free expressed | not given, derived from inhibition constants, unchanged parent 615000 nM | lower = stronger binding | phosphate dissociation constant | 557 µM

Repeated from above (block 1):
Sequence | bound/input enrichment [ratio]
AAUUUCCUGUCAUACUUUGUAGCAAGACACAUCAGACUUACAGAGCACCUGGCCACAUUCUAGGUUUGUGUUAUUUCUCAGCUAUGGGGGUAUGAUUAUGAGAACACUGCUUAACUAAUG | 0.384
GUGACUGGUGUUAAGAUUUACCCUCAGCAAAGAAGUGCAGUAGUCACCAUAAUUCCAUCUGUGGUGAGUGCCAGUCAGAUUGUGGAGCUGGUCCCAGAACUCAGUUUAGACAUGGGAACU | 0.705
AUGGAAAAGGAUUCUCUGCCCCGCUUUGUGCGCUCUGAAUUUUAUAAGGAGCUAAUCAAGUAGUAAUCUGGUCAGGCUUCCAAAAGUUGCCCUGUGAGUUGAGUUACAUCCUUUGUAGCA | 0.258
